Published values gathered from unrelated publications.
Every numbered part comes from another study and shows a few of its results, in no order. Changes are numbered by the printed parent chain.

Set 1
Target: ABI1, truncated, D143A, DHFR fusion (Arabidopsis thaliana)
Method: DHFR PCA, deep sequencing
Matrix: yeast
Notes: methotrexate growth selection, single substitutions
Added: (+)-ABA 0 µM
Baseline: wild-type fitted maximum
Direction: higher = stronger binding
Starting sequence: PYL1, truncated, DHFR fusion (Arabidopsis thaliana); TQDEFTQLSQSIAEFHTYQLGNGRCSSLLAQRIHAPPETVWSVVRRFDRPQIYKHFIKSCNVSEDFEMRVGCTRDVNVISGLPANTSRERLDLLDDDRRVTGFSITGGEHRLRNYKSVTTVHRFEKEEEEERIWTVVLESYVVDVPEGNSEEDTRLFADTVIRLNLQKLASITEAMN
For `W134T`, “relative binding score” read 37.8%.
Under “relative binding score”, `W134S` is recorded as 35.2%.
Under “relative binding score”, `S59H` is recorded as 4.29%.
`G81K`: “relative binding score” -5.49%.
For `S59T`, “relative binding score” read 13%.
`V136Y` — result for “relative binding score”: -5.04%.
`D97I`: “relative binding score” 4.52%.
Under “relative binding score”, `D153C` is recorded as -0.093%.
`V121G`: “relative binding score” -4.06%.
Under “relative binding score”, `R113K` is recorded as 43%.
For `I162F`, “relative binding score” read -8.28%.
`F47S` — result for “relative binding score”: -4.55%.
`I33R`: “relative binding score” 3.37%.
For `V142C`, “relative binding score” read 18.9%.
For `I162G`, “relative binding score” read 4.83%.

Set 2
Molecule: PhoQ, residues 284 288 289 292 302 303 DDMDFR
Method: Sort-seq
Item: YFP reporter
Matrix: E. coli
Notes: PhoQ-PhoP variant library
Added: 10 µM Mg2+
Baseline: high Mg2+ state
Direction: higher = stronger signaling
It gave 0.51 for fold induction (PhoP, residues 12 14 15 18 19 TQCLL (Escherichia coli, UniProt P23836)).
It gave 1.12 for fold induction (PhoP, residues 12 14 15 18 19 VHTVL (Escherichia coli, UniProt P23836)).
PhoP, residues 12 14 15 18 19 ICWRQ (Escherichia coli, UniProt P23836) — fold induction: 0.669.

Set 3
Target: CCND1, cyclin fold, Cln2 fusion (human)
Method: yeast growth competition, sequencing
Matrix: yeast
Notes: weak parent motif
Baseline: not given
Direction: higher = stronger binding
Starting sequence: EXO1 docking peptide (human); KPECGRVQRAIFQ; partner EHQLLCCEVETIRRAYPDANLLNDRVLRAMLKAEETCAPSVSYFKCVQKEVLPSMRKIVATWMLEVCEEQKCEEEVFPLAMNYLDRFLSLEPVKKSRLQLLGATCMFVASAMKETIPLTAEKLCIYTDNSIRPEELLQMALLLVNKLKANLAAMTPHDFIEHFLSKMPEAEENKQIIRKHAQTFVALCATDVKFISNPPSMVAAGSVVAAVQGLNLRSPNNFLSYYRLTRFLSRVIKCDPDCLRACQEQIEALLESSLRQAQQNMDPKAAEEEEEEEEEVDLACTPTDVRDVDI
Under “normalised enrichment score”, `Q13A` is recorded as 0.126.
For `G5A`, “normalised enrichment score” read -0.29.
`C4A` — result for “normalised enrichment score”: 0.124.
Under “normalised enrichment score”, `V7A` is recorded as 0.372.
`R6A` — result for “normalised enrichment score”: -0.21.
`E3A` — result for “normalised enrichment score”: 0.0382.

Set 4
Target: RING finger protein unkempt homolog, zinc fingers 1-6, GST-SBP tag (UNK, Homo sapiens, UniProt Q9C0B0, residues 30-357)
Method: RNA Bind-n-Seq
Form: RNA
Matrix: in vitro
Concentration: not given
Notes: RNA with constant flanks, human and mouse sites, ends assumed
Baseline: input RNA pool
Direction: higher = stronger binding
Shared flanks, not repeated: GGGAGUUCUACAGUCCGACGAUC … CAACAGAGGAUUGAGCAUCA
Residues (chain): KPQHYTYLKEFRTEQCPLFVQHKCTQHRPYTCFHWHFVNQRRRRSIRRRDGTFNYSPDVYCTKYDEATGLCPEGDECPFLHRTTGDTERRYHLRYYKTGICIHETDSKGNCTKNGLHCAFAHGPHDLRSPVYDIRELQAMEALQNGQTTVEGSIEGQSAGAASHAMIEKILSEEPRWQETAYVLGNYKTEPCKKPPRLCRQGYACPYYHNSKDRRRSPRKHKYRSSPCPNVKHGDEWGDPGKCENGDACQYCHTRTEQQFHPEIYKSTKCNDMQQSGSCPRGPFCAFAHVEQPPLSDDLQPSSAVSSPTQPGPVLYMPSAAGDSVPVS
The bound/input enrichment of `CUCCAUGUCAGGGGUGGGCGGGUGACUGCUGAGGGAGGCCCGCAGGUGUGUUUCUCCAUCCCGUCAUCUUGCUGCAUGCCGUCAACGGUCUCCGAAAGCAACGUUGUGCGUAGAGCUGGU` is reported as 0.11 ratio.
`UGUGAAACCCAAAAAUGGACUGUGAACGGACAACUGAGGGUUGGGUUUUUUACCACCAAACUGGUUCCUUCAGGCUCAGAGUUAACGUUUGACUAUCAGUUCCAGAGAUAUGGAAAAGAA` has a bound/input enrichment of 0.284 ratio.
`UUCGGUGCCAUUGGCUUCUUCUGGGUUGAGUAAAUUGUCAGAUACUGCUCAUCAUUUGCAAUAGUUUUCCCUGAGUGAGGCUGAAGCCUCAGGUUCCUUCAAAACACGCUAUCUAGAGAG` gave a bound/input enrichment of 0.295 ratio.
`GGAGCCAUUGAUGCUGUUCCUGUUGAUGAAAAUCUUUUCACUGGAGAGGAUUUGGAUGAACUAGAAGAAGAAUUAAAUACACUUGAUUUAGAAGAAUGACACCAAACACAUCGCUGAAAA` has a bound/input enrichment of 1.71 ratio.
`AUUUGGAAGAGUACCUGAGAUUGGUGAUAUUCUGGGCACUAAAUGAAGGUGUUUGUCGACAGUUUGACUCAUUCAGAGAUGGAUUUGAAUCGGUCUUCCCGCUCUGCCAUCUUCAGUACU` gave a bound/input enrichment of 0.0531 ratio.
`UAUGAAUGUCCAGAUCUGUGUUUCCCUGCCCUCCCAGACUCUGGCCAGUUGGAAGUGUCUCGUUUUUGUUCAUCUCUCAUUUCUGGUGCAGUGACUGAGACCCUGCCACAUCUAUGCUCU` gave a bound/input enrichment of 0.238 ratio.
For `CAGUUUUUGGAAGAAGUCAAAGUAAGCAGAGAGAUGGACAGGGAAACACUUAUAGAUGUGGCCAGAACAUCUCUUCGUACUAAAGUUCAUGCUGAACUUGCAGAUGUCUUAACAGAGGCU`, the bound/input enrichment was 0.0793 ratio.
`CAGACAAUUGCUCGGAAUGCCCUUAAACAGGAAACAGAAGUGGAACUGUACAAUGAAUUCCCUGAACCCAUCAAACUGGACAAGAAUGACCGGGCCAAGGCCUCCGCAGAAAGCUGCAGU` has a bound/input enrichment of 0.209 ratio.
For `CUCCUUUACUUCCCAGAGAACUUCACAGAGACUCUGUCCUUCCAUGCAAAGGCUUCCUGAAAUAGGGAGACUGACUGAGUAGCUCAUUCUUGUGACUUACAGUGCCAACAUUUAAAAAAG`, the bound/input enrichment was 0.427 ratio.
The bound/input enrichment of `CUUCUCAGCAUGGGGAAAUAACAGUUCUCAGGGACAGUCUACUCAAAGCUCUGGAUAUAGUAGCAAUUACGCUUAUGCACCCAGCUCCUUAGGUGGAGCCAUGAUUGAUGGACAGUCAGC` is reported as 0.448 ratio.
`GAGCCUUUAAUAUGUCCCCUUUGUAGAUCUAAGUGGAGAUCCCAUGACUUCUACAGCCAUGAGUUAUCAAGCCCCGUGGAGUCCCCCACCUCCCUGCGAGCUGUCCAGCAGCCAUCCUCC` gave a bound/input enrichment of 0.395 ratio.

For quick reference, copied from above (set 1):
Under “relative binding score”, `W134S` is recorded as 35.2%.
Under “relative binding score”, `S59H` is recorded as 4.29%.
